Experimental data pooled from the literature.
Protocols differ between the studies behind these lines. ± marks the error that the study gave.

For CCCOC(=O)Cc1c(C)n(C(=O)c2ccc(Cl)cc2)c2ccc(OC)cc12, “latency of nociceptive response” read 15.2 ± 1.11 s (hot plate test; BALB/c mice; 75 mg/kg, 90 min).
For CN1Cc2c(Cl)cc(Cl)cc2C(c2ccc(S(=O)(=O)NCCOCCOCCNC(=O)C(O)C(O)C(=O)NCCOCCOCCNS(=O)(=O)c3ccc(C4CN(C)Cc5c(Cl)cc(Cl)cc54)cc3)cc2)C1 (stereo not shown), “stool form score” read 2.5 (Sprague Dawley rats; oral, 3 mg/kg, 16 h; higher = more watery).
CC(=O)[C@]12NC(C)(C)C[C@@]1(C)C(=O)C1=C2c2c(c3c4n2C(C)(C)CC2=C4[C@@]4(CC(C)(C)N[C@@](C)(C4)C2=O)CC3(C)C)C(=O)C(C)(C)N1 (racemic) gave an inhibition of 83.7 ± 1.7% (acetic acid-induced writhing, writhing count; mouse; i.p., 1 mg/kg, 30 min).
COc1ccc2c(c1)c(CC(=O)OCC(=O)OC(C)(C)C)c(C)n2C(=O)c1ccc(Cl)cc1: “latency of nociceptive response” 16.6 ± 1.34 s (hot plate test; BALB/c mice; 100 mg/kg, 120 min).
For CC(C)C[C@H](NC(=O)[C@H](CCCNC(=N)N)NC(=O)CNC(=O)[C@@H](N)CC(C)C)C(=O)N[C@@H](CO)C(=O)N[C@@H](CCC(N)=O)C(=O)N[C@@H](CCC(=O)O)C(=O)N[C@@H](CC(C)C)C(=O)N[C@@H](Cc1c[nH]cn1)C(=O)N[C@@H](CCCNC(=N)N)C(=O)N[C@@H](CC(C)C)C(=O)N[C@@H](CCC(N)=O)C(=O)N[C@H](C(=O)N[C@@H](Cc1ccc(O)cc1)C(=O)N1CCC[C@H]1C(=O)N[C@@H](CCCNC(=N)N)C(=O)N[C@H](C(=O)N[C@@H](CC(N)=O)C(=O)N[C@H](C(=O)NCC(=O)N[C@@H](CO)C(=O)N[C@@H](CC(N)=O)C(=O)N[C@H](C(=O)N[C@@H](Cc1ccc(O)cc1)C(N)=O)[C@@H](C)O)[C@@H](C)O)[C@@H](C)O)[C@@H](C)O, “soluble Aβ1-42 level” read “no effect” (ELISA; TgCRND8 mice, brain; icv, dose not given, 5 months; reference: vehicle).
NS(=O)(=O)c1ccc(NC(=O)NN[C@@H]2O[C@H](CO)[C@@H](O)[C@H](O)[C@H]2O)cc1: “duration of IOP reduction” no more than 6 h (rabbit glaucoma model; topical ocular, 2%).
With COc1cc(CNC(=O)CCCC/C=C/C(C)C)ccc1O the infarct size was 49 ± 2% (male Sprague-Dawley rat, LAD occlusion-reperfusion; iv, 1.0 mg/kg, 30 min before ischemia, 30 min occlusion, 2 h reperfusion; reference: area at risk).
The curative effect of CCCSC(=S)N1CCN(C(=O)/C=C/c2coc3ccccc3c2=O)CC1 is reported as 53.4 ± 9% (tomato spotted wilt virus; viral infection, half-leaf method; Nicotiana glutinosa; 500 µg/mL).
COC(=O)N1c2ccc3c(nc(Cc4ccccc4)n3[C@@H]3CCC[C@@H](C(=O)O)C3)c2CC[C@@H]1C — result for “responding ER+ AR-low xenografts”: 0% (mouse, breast cancer PDX; oral, 50 mg/kg, 4 days/week, 45 days).
Cc1cc(O)c(C=O)c2c1C(=O)Oc1c(CO)c(O)c3c(c1O2)C(O)OC3=O (stereo not shown) gave a body weight of 162 ± 7.4 g (rat male, streptozotocin diabetic; 5 mg/kg, 5 weeks).
For N#Cc1c(Nc2ccccc2C(F)(F)F)s[nH]c1=O, the cADPR level was 72% (mouse, sciatic nerve axotomy, sciatic nerve; 30 mg/kg three times daily, 24 h; reference: vehicle).
For Cc1c(C(=O)Nc2ccn(C)n2)ncn1Cc1cccc(C(F)(F)F)c1, “wire hanging performance” read “no effect” (human WT αS transgenic mouse; dose not given; reference: placebo).
For C[C@@H](NC(=O)Cc1ccc(Cl)c(SC2C(=O)CC(c3c(Cl)cccc3Cl)CC2=O)c1)c1cccc2ccccc12 (stereo partly shown), “IFN-γ+ CD8+ T cells” read “no effect” (flow cytometry; C57BL/6 mice, B16-F10 melanoma allograft, tumour; intratumoral, 50 mg/kg/day, 7 days).
Under “onset of antipyretic effect”, COc1c2c(cc3oc(CO)cc(=O)c13)O[C@H](C(C)(C)O)C2 is recorded as 0.5 h (rectal temperature; rat, 2,4-dinitrophenol-induced pyrexia; oral, dose not given).
CC/C=C\C/C=C\C/C=C\C/C=C\C/C=C\CCCCOC(CC)C(=O)O (stereo not shown) — result for “hepatic cholesteryl ester”: “decreased” (APOE*3Leiden.CETP mice, high-fat/cholesterol diet; dose not given, 20 weeks; reference: control).
COc1ccc(C2CC(c3ccc(C)cc3)=Nc3ccccc3S2)cc1OC (stereo not shown) has a body weight of 188 ± 4.61 g (Wistar rat, STZ-induced diabetes; oral, 10 mg/kg once daily, day 1).
For CC(C)c1cnc(-c2cc(Cl)ccc2F)cc1Nc1ccncc1C(=O)NC(CO)CO, the inhibition was 15% (SMAD2 phosphorylation; mouse, 4T1 tumour, tumour; 30 mg/kg twice daily then once, 24 h, normalized).
Under “sleeping time reduction”, CC(C)n1cnc(C[C@H](NC(=O)c2nccnc2N)C(=O)N2CCC[C@H]2C(N)=O)c1 is recorded as 27.9% (Swiss albino mice; iv, 10 µmol/kg, with: pentobarbital 50 mg/kg ip; reference: control).
The inactivation effect of CCN(CC)CCSC(=S)N1CCN(C(=O)/C=C/c2coc3ccc(OC)cc3c2=O)CC1 is reported as 59.7 ± 7.2% (tomato spotted wilt virus; viral infection, half-leaf method; Nicotiana glutinosa; 500 µg/mL).
For [64Cu+2].c1ccc(CNCc2ccc(CN3CCCN4CCNCCCN(CC4)CC3)cc2)nc1, the tissue uptake was 1.67 ± 0.25 %ID/g (CXCR4; NOD/SCID mouse, U87 and U87-stb-CXCR4 xenografts, heart; iv, 90 min, ex vivo).
For CCCS(=O)(=O)Nc1c(F)ccc(C(=O)c2n[nH]c3ncc(-c4ccncc4)cc23)c1F, “regenerated liver volume” read 252 ± 13.6 mL (CT; pig, 80% hepatectomy; intravenous, 5 mg/kg every 12 h, 43 h after hepatectomy).
C=CC(=O)N1C[C@H](C)N(c2nc(OC[C@@]34CCCN3C[C@H](F)C4)nc3c(F)c(-c4ccc(F)c5sc(N)c(C#N)c45)c(C(F)(F)F)cc23)C[C@H]1C has an inhibition of 41% (item: phospho-ERK; mouse MIA PaCa-2 Matrigel plug; 30 mg/kg single dose, 72 h).
Cc1ccc(S(=O)(=O)N(CCc2nnc(S)n2N)c2ccc(Cl)cc2)cc1 has a protection of 93.8% (analgesia; rat tail flick radiant heat; 200 mg/kg).
For Cc1nc(C)c(C=[N+]([O-])C(C)(C)C)nc1C, “protein level increase” read 93% (Western blot, item: MEF2D; mouse, MPTP model, substantia nigra nuclei; 30 mg/kg).
For Cl.[Cl][Ru-4]123([n+]4ccccc4-c4cc(-c5ccccc5)cc([n+]41)-c1cccc[n+]12)[n+]1ccc(-c2ccccc2)c2ccc4c(-c5ccccc5)cc[n+]3c4c21, the EC50 was 12.2 µM (DNA damage, gel electrophoresis; pUC19 plasmid DNA; 16 h, 37 °C).
Cc1cc(=O)[nH]c2ccc(OCCCC(=O)N3CCCCC3)cc12 — result for “contraction force increase”: 35 ± 5% (rat, isolated spontaneously beating atria; 100 µM; reference: baseline).
CSCC[C@@H]1NC(=O)[C@H](C)NC(=O)[C@H]([C@@H](C)O)NC(=O)CNC(=O)[C@H](CC(C)C)NC(=O)[C@H](CCC(N)=O)NC(=O)[C@H](CCCNC(=N)N)NC(=O)[C@@H]2CSSC[C@@H]3NC(=O)[C@@H]4CCCN4C(=O)[C@H](C(C)C)NC(=O)[C@H](CCC(N)=O)NC(=O)[C@H](CCC(N)=O)NC(=O)CNC(=O)[C@H](CC(C)C)NC(=O)[C@@H]4CSSC[C@H](NC(=O)[C@H]([C@@H](C)O)NC(=O)[C@H](C)NC(=O)[C@H](CSSC[C@@H](C(=O)N[C@@H](CO)C(=O)N[C@@H](CCC(N)=O)C(=O)N[C@H](C(N)=O)[C@@H](C)O)NC(=O)[C@@H]5CCCN5C(=O)[C@H](CC(N)=O)NC1=O)NC(=O)[C@@H]1CCCN1C(=O)[C@H](CC(=O)O)NC(=O)[C@H](CSSC[C@H](NC(=O)[C@H](CCCNC(=N)N)NC(=O)[C@H](CCCNC(=N)N)NC(=O)[C@H](CO)NC(=O)[C@@H](N)CO)C(=O)N[C@@H](C(C)C)C(=O)N[C@@H](CCCNC(=N)N)C(=O)N[C@@H](CC(C)C)C(=O)N[C@@H](Cc1c[nH]cn1)C(=O)N[C@@H](CCC(=O)O)C(=O)N[C@@H](CO)C(=O)N4)NC3=O)C(=O)N[C@@H](Cc1ccc(O)cc1)C(=O)N[C@H]1CSSC[C@H](NC(=O)[C@H](Cc3ccccc3)NC(=O)[C@H](C)NC(=O)[C@H](CC(N)=O)NC(=O)[C@H](Cc3ccccc3)NC(=O)[C@H](Cc3ccccc3)NC(=O)[C@H](CCCNC(=N)N)NC1=O)C(=O)N[C@@H](Cc1ccc(O)cc1)C(=O)N2 — result for “body weight change”: 6.89 ± 7 g (Long-Evans rat, male; intracerebroventricular, 1.0 nmol, 5 days).
For C=C(c1ccc(C(=O)O)c(F)c1)c1cc2c(cc1C)C(C)(C)C=CC2(C)C, “log2 fold change” read -0.24 (RNA sequencing, item: Nmu; rat, brain; dose not given, 24 h; reference: vehicle).
For CC(=O)N[C@@H](C)C(=O)N[C@@H](CO)C(=O)NC(C)(C)C(=O)N[C@@H](CC(C)C)C(=O)N[C@@H](CCCNC(=N)N)C(=O)N[C@@H](CCCCN)C(=O)N[C@@H](CC(C)C)C(=O)NC(C)(C)C(=O)N[C@@H](CCCCN)C(=O)N[C@@H](CCCNC(=N)N)C(=O)N[C@@H](CC(C)C)C(=O)N[C@@H](CC(C)C)C(N)=O, “cortical lesion volume reduction” read 6.42% (cresyl violet staining; male Long-Evans rat, fluid percussion injury; 1.0 mg/kg, 5 doses, post-injury day 22; reference: contralateral cortex).
NS(=O)(=O)NCC(F)(F)c1ccccc1F gave an ED50 of 19 mg/kg (6 Hz seizures; mouse; intraperitoneal).
Under “AR and FoxA1 expression”, Cc1cc([C@H](C(=O)N2C[C@H](O)C[C@H]2C(=O)N[C@@H](CC(=O)N2CCC(N3CCC(C#Cc4ccc(C(=O)N[C@H]5C(C)(C)[C@H](Oc6ccc(C#N)c(Cl)c6)C5(C)C)cc4)CC3)CC2)c2ccc(-c3scnc3C)cc2)C(C)C)on1 is recorded as “inhibited” (MDA-MB-453; 1 µM, 24 h, with: 1 nM R1881).
CC(NCCc1nsc2ccccc12)c1cccc2c1OCO2 (stereo not shown) gave an IC50 of 0.583 µM (PTH secretion inhibition; C57BL/6 mouse, ex vivo parathyroid glands; with: extracellular Ca2+ 0.75 mM).
The apoptotic cells of O=C(NCCN1C(=O)C=CC1=O)[O][Pt-2]12([O]C(=O)NCCN3C(=O)C=CC3=O)([NH2+][C@@H]3CCCC[C@H]3[NH2+]1)[O]C(=O)C(=O)[O]2 is reported as roughly 40% (H&E histology; BALB/c mouse CT26 allograft, tumour; dose not given, day 12).
CC(=O)[O-].O.O.[O-]c1ccc(Br)cc1C=NCCN1CCOCC1.[Zn+2] has an inhibition of 61.1% (DPPH radical scavenging; 240 µM).
N=C(N)NCCC[C@@H]1NC(=O)[C@H](Cc2c[nH]c3ccccc23)NC(=O)[C@@H](CC2CCCCC2)NC(=O)[C@@H]2CCCN2C(=O)[C@@H](NC(=O)CCc2ccccc2)CCCNC1=O has an MRT(0-inf) of 1.85 h (C57BL/6J mouse, plasma brain; subcutaneous, 1 mg/kg single dose).
CC12CC(O)C3CC1(OC1OC(CO)C(O)C(O)C1O)C3(COC(=O)c1ccccc1)C(=O)O2 (stereo not shown) has an out-circle rate of 40% (mice, reserpine-induced depression; 7 mg/kg, 7 days, within 15 s).
C[N+](C)(CF)CCO: platelet aggregation “no effect” (human platelet-rich plasma; 20 µM, with: ADP 2 µM).

Excerpt of the above:
For N#Cc1c(Nc2ccccc2C(F)(F)F)s[nH]c1=O, the cADPR level was 72% (mouse, sciatic nerve axotomy, sciatic nerve; 30 mg/kg three times daily, 24 h; reference: vehicle).
For Cc1c(C(=O)Nc2ccn(C)n2)ncn1Cc1cccc(C(F)(F)F)c1, “wire hanging performance” read “no effect” (human WT αS transgenic mouse; dose not given; reference: placebo).
For C[C@@H](NC(=O)Cc1ccc(Cl)c(SC2C(=O)CC(c3c(Cl)cccc3Cl)CC2=O)c1)c1cccc2ccccc12 (stereo partly shown), “IFN-γ+ CD8+ T cells” read “no effect” (flow cytometry; C57BL/6 mice, B16-F10 melanoma allograft, tumour; intratumoral, 50 mg/kg/day, 7 days).
Under “onset of antipyretic effect”, COc1c2c(cc3oc(CO)cc(=O)c13)O[C@H](C(C)(C)O)C2 is recorded as 0.5 h (rectal temperature; rat, 2,4-dinitrophenol-induced pyrexia; oral, dose not given).
